Experimental data collected from several papers.
Compare with care: the assays were run in different laboratories.
Organism: Candida albicans

CC[C@H](C)[C@H](NC(=O)[C@H](CC(C)C)NC(=O)[C@H](CCC(=O)O)NC(=O)[C@H](CO)NC(=O)[C@H](CCCNC(=N)N)NC(=O)[C@@H](N)CO)C(=O)N[C@H](C(=O)N[C@@H](CCCNC(=N)N)C(=O)N[C@@H](CCC(N)=O)C(=O)N[C@@H](CCCNC(=N)N)C(=O)N[C@@H](CC(C)C)C(=O)N[C@@H](Cc1ccccc1)C(N)=O)C(C)C  MIC (broth microdilution; RPMI MOPS-buffered): > 400 µg/mL
CC(C)[C@@H](CC(=O)N[C@@H](CCCCN)CC(N)=O)NC(=O)[C@H]1CCCC[C@@H]1NC(=O)C[C@H](CCCCN)NC(=O)C[C@@H](NC(=O)[C@H]1CCCC[C@@H]1NC(=O)C[C@H](CCCCN)NC(=O)C[C@@H](NC(=O)[C@H]1CCCC[C@@H]1N)C(C)C)C(C)C  MIC (broth microdilution; SC5314; 48 h, pH 7.2, 35 °C): 8 µg/mL
O=C(NCCNCCO)c1cn(Cc2ccccc2)c2cc(OCc3ccc(C(F)(F)F)cc3)c(Cl)cc2c1=O  MIC (ATCC 90028; ≥80% growth inhibition): > 32 µg/mL
CC[C@H](C)[C@@H]1NC(=O)[C@H](CC(C)C)NC(=O)[C@@H](NC(=O)[C@H](CO)NC(=O)[C@H](CCCNC(=N)N)NC(=O)[C@@H](N)CO)CSSC[C@H](NC(=O)[C@H](CO)NC(=O)[C@H](CCCNC(=N)N)NC(=O)[C@@H](N)CO)C(=O)N[C@@H](CC(C)C)C(=O)N[C@@H]([C@@H](C)CC)C(=O)N[C@@H](C(C)C)C(=O)N[C@H](C(=O)N[C@@H](CCC(N)=O)C(=O)N[C@@H](CCCNC(=N)N)C(=O)N[C@@H](CC(C)C)C(=O)N[C@@H](Cc2ccccc2)C(N)=O)CSSC[C@@H](C(=O)N[C@@H](CCC(N)=O)C(=O)N[C@@H](CCCNC(=N)N)C(=O)N[C@@H](CC(C)C)C(=O)N[C@@H](Cc2ccccc2)C(N)=O)NC(=O)[C@H](C(C)C)NC1=O  MIC (broth microdilution; ATCC 24433): 48 µg/mL
CC[C@@H](CC(=O)N[C@@H](CCCNC(=N)N)CC(=O)N[C@H](CC(=O)N[C@@H](CC)CC(=O)N[C@@H](CCCNC(=N)N)CC(=O)N[C@H](CC(=O)N[C@@H](CC)CC(=O)N[C@@H](CCCNC(=N)N)CC(N)=O)[C@@H](C)CC)[C@@H](C)CC)NC(=O)C[C@@H](NC(=O)C[C@@H](N)Cc1ccc(O)cc1)[C@@H](C)CC  MIC (broth microdilution; SC5314; 48 h, pH 7.2, 35 °C): 16 µg/mL
CCCCCCCCCCCCC(=O)O.O=C1CCCC2C3CCCN4CCCC(CN12)C34 (stereo not drawn)  MIC (broth dilution; ATCC 10231): inactive
CC[C@H](C)[C@H](NC(=O)[C@H](C)NC(=O)[C@@H]1CCCN1C(=O)[C@H](CC(C)C)NC(=O)[C@H](Cc1ccccc1)NC(=O)[C@H](CCCCN)NC(=O)[C@H](CCSC)NC(=O)[C@H](C)NC(=O)[C@H](CCSC)NC(=O)[C@H](CCCCN)NC(=O)[C@H](C)NC(=O)[C@@H](NC(=O)[C@@H](NC(=O)CNC(=O)[C@H](Cc1ccccc1)NC(=O)[C@@H](N)Cc1ccccc1)C(C)C)[C@@H](C)CC)C(=O)N[C@@H](Cc1ccccc1)C(=O)N[C@@H](CCCCN)C(=O)N[C@@H](CCC(N)=O)C(=O)N[C@H](C(=O)N[C@@H](CCC(N)=O)C(=O)N[C@@H](CCCCN)C(=O)N[C@@H](CCCCN)C(=O)N[C@@H](CCCNC(=N)N)C(=O)N[C@@H](CCCCN)C(N)=O)[C@@H](C)CC  MIC (ATP luminescence; FH2173; 48 h): 12.5 µM
CC[C@H](C)[C@@H]1NC(=O)CNC(=O)[C@H](CCCCN)NC(=O)[C@H](C)NC(=O)[C@H](CCC(=O)O)NC(=O)[C@H](Cc2ccccc2)NC(=O)[C@H](CO)NC(=O)[C@H](CC(C)C)NC(=O)[C@H](C(C)C)NC(=O)[C@H](CC(=O)O)NC(=O)[C@@H](NC(=O)[C@@H](NC(=O)[C@@H](N)C(C)C)[C@@H](C)O)CSSC[C@@H]2NC(=O)[C@H](CO)NC(=O)CNC(=O)CNC(=O)[C@H](CCCCN)NC(=O)[C@H](CCCCN)NC(=O)[C@H](CCCNC(=N)N)NC(=O)[C@H](CC(C)C)NC(=O)[C@H](C)NC(=O)[C@H]([C@@H](C)CC)NC(=O)[C@H](C)NC(=O)[C@H](Cc3c[nH]cn3)NC(=O)[C@H](CC(C)C)NC(=O)[C@H](C)NC(=O)[C@H](CSSC[C@@H](C(=O)N[C@H](C(=O)N[C@@H](C)C(=O)N[C@@H](CCCNC(=N)N)C(=O)N[C@@H](CC(N)=O)C(=O)O)C(C)C)NC(=O)[C@H](C(C)C)NC(=O)CNC(=O)[C@H](CC(N)=O)NC(=O)[C@H](CCC(N)=O)NC2=O)NC(=O)[C@H](C)NC(=O)[C@H](CO)NC(=O)[C@H](Cc2c[nH]cn2)NC(=O)[C@H](CC(N)=O)NC(=O)[C@H](C(C)C)NC(=O)[C@H](C)NC1=O  MIC (broth microdilution; ATCC 90028; 28 °C): 12.5 µM
CC1C(=NNC(=O)c2ccncc2)C(C)C(c2ccc(Br)cc2)OC1c1ccc(Br)cc1 (stereo not drawn)  MIC (microbial growth): 100 µg/mL
CC[C@H](C)[C@H](NC(=O)CNC(=O)[C@@H](NC(=O)[C@@H](N)Cc1ccccc1)[C@@H](C)CC)C(=O)N[C@@H](CCSC)C(=O)N[C@@H](C)C(=O)N[C@H](C(=O)N[C@@H](CC(C)C)C(=O)N[C@@H](C)C(=O)N[C@@H](CO)C(=O)N[C@@H](CC(C)C)C(=O)N[C@H](C(=O)N[C@H](C(=O)N1CCC[C@H]1C(=O)N[C@@H](CCCCN)C(=O)N[C@@H](CC(C)C)C(=O)N[C@H](C(=O)N[C@@H](CCC(=O)O)C(=O)N[C@@H](CCCCN)C(=O)N[C@H](C(=O)N[C@@H](CCCCN)C(=O)N[C@@H](CCC(N)=O)C(=O)N[C@@H](C)C(=O)N[C@@H](CCCNC(=N)N)C(N)=O)[C@@H](C)CC)[C@@H](C)CC)[C@@H](C)CC)C(C)C)[C@@H](C)O  MIC (ATP luminescence; FH2173; 48 h): 50 µM
[Ag+].[S-]c1ccccn1.c1ccc(P(c2ccccc2)c2ccccc2)cc1.c1ccc(P(c2ccccc2)c2ccccc2)cc1  MIC (agar dilution; MTCC 227, Mueller Hinton agar; 24 h, 25 °C): 50 µg/mL
COc1cc2c(=O)c(C(=O)NCCNCCO)cn(Cc3ccccc3)c2cc1OCc1cccc(Cl)c1  MIC (ATCC 90028; ≥80% growth inhibition): > 32 µg/mL
N#CC1COC(=O)N1/N=C/c1ccc([N+](=O)[O-])o1 (stereo not drawn)  MIC (microbial growth, broth dilution; ATCC14053; 18 h): > 50 µg/mL
CC(C)C[C@H](NC(=O)[C@H](CCCNC(=N)N)NC(=O)[C@H](CCC(N)=O)NC(=O)[C@H](Cc1c[nH]cn1)NC(=O)[C@@H](NC(=O)[C@H](CCCCN)NC(=O)[C@H](CC(C)C)NC(=O)[C@H](CCC(=O)O)NC(=O)[C@H](CO)NC(=O)[C@H](CCCNC(=N)N)NC(=O)[C@@H](N)CO)C(C)C)C(=O)N[C@@H](Cc1ccccc1)C(N)=O  MIC (broth microdilution; RPMI MOPS-buffered): > 400 µg/mL
CC(C)C[C@H](NC(=O)CN)C(=O)N[C@@H](CC(C)C)C(=O)N[C@@H](CCCCN)C(=O)N[C@@H](CC(C)C)C(=O)N[C@@H](CC(C)C)C(=O)N[C@@H](CCCCN)C(=O)N[C@@H](CCCCN)C(=O)N[C@@H](CC(C)C)C(=O)N[C@@H](CC(C)C)C(=O)N[C@@H](CCCCN)C(=O)N[C@@H](CC(C)C)C(=O)N[C@@H](CC(C)C)C(=O)N[C@@H](CCCCN)C(N)=O  MIC (broth microdilution OD530; ATCC 90028, yeast nitrogen base; 24 h, 35 °C): 12 µM

Some of these lines once more:
CC[C@H](C)[C@@H]1NC(=O)[C@H](CC(C)C)NC(=O)[C@@H](NC(=O)[C@H](CO)NC(=O)[C@H](CCCNC(=N)N)NC(=O)[C@@H](N)CO)CSSC[C@H](NC(=O)[C@H](CO)NC(=O)[C@H](CCCNC(=N)N)NC(=O)[C@@H](N)CO)C(=O)N[C@@H](CC(C)C)C(=O)N[C@@H]([C@@H](C)CC)C(=O)N[C@@H](C(C)C)C(=O)N[C@H](C(=O)N[C@@H](CCC(N)=O)C(=O)N[C@@H](CCCNC(=N)N)C(=O)N[C@@H](CC(C)C)C(=O)N[C@@H](Cc2ccccc2)C(N)=O)CSSC[C@@H](C(=O)N[C@@H](CCC(N)=O)C(=O)N[C@@H](CCCNC(=N)N)C(=O)N[C@@H](CC(C)C)C(=O)N[C@@H](Cc2ccccc2)C(N)=O)NC(=O)[C@H](C(C)C)NC1=O  MIC (broth microdilution; ATCC 24433): 48 µg/mL
